Measured values of several laboratories.
Parts stem from different laboratories: compare values within a part only. Positions count from the first letter of the parent shown.
Sequence of UniProt O15294 (whole entry, looked up): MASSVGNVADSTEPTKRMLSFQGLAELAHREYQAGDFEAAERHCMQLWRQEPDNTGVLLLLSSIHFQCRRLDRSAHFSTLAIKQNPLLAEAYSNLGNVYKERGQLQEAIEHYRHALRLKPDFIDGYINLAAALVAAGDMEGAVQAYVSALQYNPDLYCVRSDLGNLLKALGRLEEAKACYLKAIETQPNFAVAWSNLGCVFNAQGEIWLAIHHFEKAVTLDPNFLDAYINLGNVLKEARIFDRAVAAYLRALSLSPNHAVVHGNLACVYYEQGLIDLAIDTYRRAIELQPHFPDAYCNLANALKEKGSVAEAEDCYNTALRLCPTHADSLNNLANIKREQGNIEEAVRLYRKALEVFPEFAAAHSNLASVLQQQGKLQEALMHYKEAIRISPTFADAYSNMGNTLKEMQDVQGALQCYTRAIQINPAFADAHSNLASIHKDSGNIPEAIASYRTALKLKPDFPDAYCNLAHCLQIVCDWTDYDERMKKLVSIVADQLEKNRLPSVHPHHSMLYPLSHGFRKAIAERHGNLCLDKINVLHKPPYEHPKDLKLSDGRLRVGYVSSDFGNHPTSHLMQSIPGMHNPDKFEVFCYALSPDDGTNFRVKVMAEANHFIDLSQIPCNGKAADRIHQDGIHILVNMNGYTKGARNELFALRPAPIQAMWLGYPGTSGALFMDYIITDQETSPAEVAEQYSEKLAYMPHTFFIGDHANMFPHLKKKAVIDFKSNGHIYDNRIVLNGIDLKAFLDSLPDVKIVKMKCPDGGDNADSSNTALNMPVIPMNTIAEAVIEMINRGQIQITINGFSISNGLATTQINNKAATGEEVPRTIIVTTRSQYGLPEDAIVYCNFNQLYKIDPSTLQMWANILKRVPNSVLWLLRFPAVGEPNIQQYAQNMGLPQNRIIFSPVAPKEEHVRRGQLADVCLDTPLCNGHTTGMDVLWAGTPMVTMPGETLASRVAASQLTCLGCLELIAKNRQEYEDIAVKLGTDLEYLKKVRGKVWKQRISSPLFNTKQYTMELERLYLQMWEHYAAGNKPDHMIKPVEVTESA

Study 1
Target: RNA binding protein fox-1 homolog 2, RRM domain, GST-SBP tag (RBFOX2, Homo sapiens, UniProt O43251-10, residues 100-194)
Method: RNA Bind-n-Seq
Molecule type: RNA
Sample: in vitro
Tested at: 365 nM
Setting: natural RNA segment, single round, ends assumed
Relative to: no-protein control
Direction: higher = stronger binding
Shared flanks, not repeated: GGGAGUUCUACAGUCCGACGAUC … UGGAAUUCUCGGGUGCCAA
Residues (chain): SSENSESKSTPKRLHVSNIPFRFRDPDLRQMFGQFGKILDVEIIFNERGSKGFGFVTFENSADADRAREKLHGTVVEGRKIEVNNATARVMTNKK
Oligonucleotide | RBNS enrichment (R)
ACGCCCCCCAGCGCACAUGUAGUCCUGAGUCCUCCCUGCCUGAGAGGCCACUGGCCCCGCAGCCCUUGGGAGGCCCCCGUGGAUGUGGCCCUGUGUGGGACCACACUGUC | 0.288
GUUAUAAAAAUAAGUGAUUUCAGAGUAGAUGUAGUGGCACAUGCUUUUGUCUUUAAUAGAGGAGGCAGAGGGAUCUGUGACUUAAAAGCCAGUCUGAUCUACAUUGUGAG | 0.374
GUGGGCAAACACUUCUCAGCUGGUCCAUUUUUACAACGAUUGAAAAUCUAGAAGCCUUCUCAUGUUGCCUGGUCACCUACUCCAUAAAGUGUGGGCCUUGCCUGGAAAGG | 0.349
AGACCUAUUUUUGUUGUCUUGUUCCCUAAAGGAGUUUUCUAACACUUGAAUAAAUUGGGAUACUAAACAAGCCACCAGGGGGCGUGUGAGGUCUGAGUCCUGAGCUGCUG | 1.61
CAAGCUGAGUUUCCUCUUCUGAGGCAGAGGCUGGAGCAGUUCUUUUUCAGUUCUCAUCCUCUCCAUCCCAAUCCAGUAUAUCAAUCAACUCUAACUCGGAGACGUCUAGC | 0.285
GGGCUGGGGGUUGGACGGGAUUGAGGAAGGUCCGCACAGCCUGUCUCUGCUCAGUUGCAAUAAACGUGACAUCUUGGGAGCGUUCCCCAGAGUUUGUCUGCUUCUAGAAC | 0.483
ACUGUGGCUGGAAUGUGGUGGGCUUGGUGACUUUUCUUUCUGCCCUCCCUUGAGUGCUCACCCUCCACCUACCAGACUGGAAGCUGACUUUAAGUCCUCUAAUAAAAAUA | 2.02
UUGCUUUCUUCUCUUGCCUCUGAGAACAUCAGCCUGGAGGCCUGUCAGGCUACGGGCUGCCUGAGUGGAAACCUGGGAUGGUGGAGAAUUCCCAAGCCACAGCCCUUUUG | 0.341

Study 2
Target: Hepatocyte nuclear factor 3-beta, forkhead domain (FOXA2, Homo sapiens, UniProt Q9Y261, residues 142-269)
Method: protein-binding microarray
Molecule type: double-stranded DNA, one strand shown
Sample: in vitro
Tested at: not given
Setting: k-mer, scored over probes, only values ≥0.25
Direction: higher = stronger binding
Construct (chain): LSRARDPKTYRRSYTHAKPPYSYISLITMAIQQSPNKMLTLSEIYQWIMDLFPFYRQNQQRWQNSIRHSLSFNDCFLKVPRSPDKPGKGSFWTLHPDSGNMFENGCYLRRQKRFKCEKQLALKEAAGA
Oligonucleotide | E-score
ACTTTACC | 0.257
ATGTATCA | 0.301
AAGTTATG | 0.279
AGATAGTA | 0.258
AATACCCA | 0.266
GATATGAA | 0.269
AGACAATA | 0.285
CAACTAAA | 0.277

Study 3
Target: JUNB, bZIP domain (human)
Method: DHFR protein complementation
Sample: yeast
Setting: single substitutions, most at no-binding floor
Relative to: wild-type JUN-FOS pair
Direction: higher = stronger binding
Starting sequence: JUN, bZIP domain (human); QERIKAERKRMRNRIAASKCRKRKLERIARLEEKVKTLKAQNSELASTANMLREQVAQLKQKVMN; partner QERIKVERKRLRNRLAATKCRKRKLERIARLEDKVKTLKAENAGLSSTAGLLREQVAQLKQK
Substitution | binding fitness [natural log]
V35C | -1.27
S47F | -1.13
M51I | -1.15
V35P | -1.49
V35H | -1.49
L31C | -1.41
A57T | -1.26
R53T | -1.43

Other studies, line by line
Sequence | target | test | test system | conditions | how to read | measurement | result
SVFVHMQHRHGPHY | UDP-N-acetylglucosamine--peptide N-acetylglucosaminyltransferase 110 kDa subunit (OGT, Homo sapiens, UniProt O15294) | binding, phage display NGS | peptide | concentration not given | relative to: input library | enrichment fold change | 14.7
